Literature values as cited in several papers.
± marks the error that the study gave.
Sequence of UniProt Q9NQU5 (whole entry, looked up): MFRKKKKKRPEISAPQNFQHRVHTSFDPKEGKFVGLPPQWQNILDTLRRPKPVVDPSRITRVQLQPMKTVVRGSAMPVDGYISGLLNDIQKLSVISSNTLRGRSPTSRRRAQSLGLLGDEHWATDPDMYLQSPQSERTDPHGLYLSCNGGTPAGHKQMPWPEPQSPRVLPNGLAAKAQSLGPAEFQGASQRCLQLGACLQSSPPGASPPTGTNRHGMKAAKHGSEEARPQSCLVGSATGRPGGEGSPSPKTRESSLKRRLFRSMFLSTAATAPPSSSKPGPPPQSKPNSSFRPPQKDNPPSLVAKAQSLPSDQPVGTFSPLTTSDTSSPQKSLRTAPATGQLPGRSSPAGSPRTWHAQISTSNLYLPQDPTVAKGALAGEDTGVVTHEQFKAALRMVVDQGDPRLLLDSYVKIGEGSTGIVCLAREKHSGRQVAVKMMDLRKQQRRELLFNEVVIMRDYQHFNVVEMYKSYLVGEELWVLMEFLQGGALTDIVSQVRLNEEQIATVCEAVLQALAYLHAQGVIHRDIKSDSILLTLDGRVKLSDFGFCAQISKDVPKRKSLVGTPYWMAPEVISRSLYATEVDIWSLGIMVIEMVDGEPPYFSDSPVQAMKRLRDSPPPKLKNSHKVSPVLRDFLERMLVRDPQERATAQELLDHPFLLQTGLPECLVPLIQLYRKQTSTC

O=C(/C=C/c1ccc(O)c2c1[C@H](C(=O)O[C@H](Cc1ccc(O)c(O)c1)C(=O)O)[C@@H](c1ccc(O)c(O)c1)O2)O[C@H](Cc1ccc(O)c(O)c1)C(=O)O — effective dose (anticoagulant effect; rabbit LPS-induced DIC; intravenous): 1 mg/kg
CC1(C)S[C@@H]2[C@H](NC(=O)[C@H](N)c3ccccc3)C(=O)N2[C@H]1C(=O)O — MIC (Klebsiella pneumoniae; clinical isolate RKI-No_164/16): > 16 µg/mL
Cc1[nH]c(C)c(-c2ccc(CCc3ccc(C(F)(F)F)cc3)nc2)c(=O)c1Cl — IC50 (Plasmodium falciparum; whole cell extended time; 3D7; 72 h): 90 nM
Nc1cccc2c1C(=O)N(C1CCC(=O)NC1=O)C2=O (stereo not drawn) — minimal response or better rate (relapsed refractory multiple myeloma patients; dose not given, independent adjudication): 25%
C=CCc1ccc(O)c(OC)c1 — IC50 (ABTS radical scavenging): 7.84 µg/mL
C=CCN(/C=C1/C(=O)O[C@H](COC)[C@@]2(C)C1=C(O)C(=O)C1=C2[C@H](OC(C)=O)C[C@]2(C)C(=O)CC[C@@H]12)CC=C — stable disease (advanced solid tumour patients; dose not given, days 1–5, 8–12, 28-day cycle; reference: patients): 22%
CC1(C)CCC(CN2CCN(c3ccc(C(=O)NS(=O)(=O)c4ccc(NCC5CCOCC5)c([N+](=O)[O-])c4)c(Oc4cnc5[nH]ccc5c4)c3)CC2)=C(c2ccc(Cl)cc2)C1 — objective response rate (human, B-cell malignancies other than CLL/SLL; dose not given): 44%
COc1c(Cl)cccc1Nc1c(-c2ccncc2OC[C@@H]2COCCO2)[nH]c2c1C(=O)NCC2 — overall response rate (patients, NSCLC, HER2-mutant, previously treated; dose not given): 59%
COc1ccc(CC(C)NCC(O)c2ccc(O)c(NC=O)c2)cc1 (stereo not drawn) — trough FEV1 change from baseline (COPD patients; inhaled, 24 µg single, 12 h post-dose; reference: placebo): 44 mL
CN1CCCC(CN2CCN(Cc3ccc(-c4cccc(-c5nc6ccccc6[nH]5)c4)cc3)CC2)C1 (stereo not drawn) — IC50 (Plasmodium falciparum; whole cell extended time; 3D7; 72 h): 130 nM
CCN(c1cc(-c2ccc(CN3CCOCC3)cc2)cc(C(=O)NCc2c(C)cc(C)[nH]c2=O)c1C)C1CCOCC1 — combined ORR (epithelioid sarcoma patients; cohorts 5 and 6): 13%
COC(=O)C1=C(C)NC(C)=C(C(=O)OC)C1c1c(Cl)nc2sc(C)c(C)n12 — decrease in atrial rate (guinea pig right atrium; 5 µM, spontaneously beating; reference: control): 29 ± 1.9%
OCc1cc(C(O)CNCCCCCCOCCCCc2ccccc2)ccc1O (stereo not drawn) — trough FEV1 change from baseline (COPD patients; inhaled, 25 µg single, 12 h post-dose; reference: placebo): 74 mL
CC(=O)O[C@H]1C(=O)[C@@]2(C)[C@H]([C@H](OC(=O)c3ccccc3)[C@]3(O)C[C@H](OC(=O)[C@H](O)[C@@H](NC(=O)c4ccccc4)c4ccccc4)C(C)=C1C3(C)C)[C@]1(OC(C)=O)CO[C@@H]1C[C@@H]2O — median time to progression (platinum/compound-refractory ovarian cancer patients; 80 mg/m2 weekly, monotherapy): 5.5 months
COc1cnc(-n2cnc(C)n2)c2c1c(C(=O)C(=O)N1CCN(C(=O)c3ccccc3)CC1)cn2COP(=O)(O)O — plasma HIV-1 RNA decline (HIV-1 patients; 600 mg twice daily, day 8): 0.791 log10 copies/mL
CCC/C=C1\OC(=O)C2=C1CC[C@@H](O)[C@@H]2O — effective dose (ADP-induced platelet aggregation, inhibitor; rabbit blood): 5 mmol/L
CCc1c2c(nc3ccc(OC(=O)N4CCC(N5CCCCC5)CC4)cc13)-c1cc3c(c(=O)n1C2)COC(=O)[C@]3(O)CC — progression-free survival (human, gastric or gastro-oesophageal junction adenocarcinoma; dose not given, trial): 2.6 months
COC(=O)C1=C(C)NC(C)=C(C(=O)OC)C1c1c(C)nc2sc(C)cn12 — decrease in heart rate (guinea pig right atrium; 5x1.000e-05 M): 33 ± 2.6%
C[C@H]1COCCN1c1nc(-c2cnc(N)cc2C(F)F)nc(N2CCOCC2)n1 — GI50 (A204): 129 nM
CC(C)(C)NCC(O)c1ccc(O)c(CO)c1 (stereo not drawn) — trough FEV1 change (COPD patients; 2 mg single, 6 h, day 1; reference: baseline, placebo-corrected): 94 mL
Cc1cc(-c2nccc3c2ccn3CC(=O)Nc2ccc(-c3cnccn3)cn2)ccn1 — Ashcroft score (mouse, bleomycin-induced pulmonary fibrosis; oral, 25 mg/kg once daily, days 14-28): decreased
C=CC(=O)Nc1cc(Nc2nccc(Nc3cc(Cl)c(F)cc3C(C)(C)O)n2)c(OC)cc1N1CC[C@@H](N(C)C)C1 — objective response rate (clinical trial; human, advanced or metastatic NSCLC; dose not given): 46%
Cn1cncc1[C@@](N)(c1ccc(Cl)cc1)c1ccc2c(c1)c(-c1cccc(Cl)c1)cc(=O)n2C — response rate (human adults, poor-risk acute leukaemia; dose not given, sample A of sample B patients): 29%
Nc1cccc2c1CN(C1CCC(=O)NC1=O)C2=O (stereo not drawn) — IC50 (TNF release; human whole blood; with: LPS): 100 nM
O=C(O)CN(CC(=O)O)[C@H]1CCCC[C@@H]1N(CC(=O)O)Cc1ccccn1 — transmetallation rate constant (37 °C, with: 25 equiv Zn2+): 0.000676 s⁻¹
O=C(O)c1ccc(O)c(O)c1 — effective dose (anti-inflammatory effect; lung injury, acute, LPS-induced mouse; intraperitoneal): 5 mg/kg
COc1cccc2c1C(=O)c1c(O)c3c(c(O)c1C2=O)C[C@@](O)(C(=O)CO)C[C@@H]3O[C@H]1C[C@H](N)[C@H](O)[C@H](C)O1 — overall response rate (soft tissue sarcoma incl. epithelioid; dose not given): ~24%
COc1ccc(-n2nc(C(N)=O)c3c2C(=O)N(c2ccc(N4CCCCC4=O)cc2)CC3)cc1 — aPTT (dog; oral, 0.2 mg/kg): no effect
O=C(c1ccc(Cl)cc1)N(Cc1ccccc1)C1CCCCC1 — cytokine release (refers to: IL-1β, IL-6, TNF-α; mouse, LPS-induced ALI; dose not given): decreased
C=CC(=O)Nc1cc(Nc2ncc(C(=O)OC(C)C)c(-c3cn(C)c4ccccc34)n2)c(OC)cc1N(C)CCN(C)C — objective response rate (phase 1/2 trial; human, NSCLC patients; dose not given): 28%
COC(=O)C1=C(C)NC(C)=C(C(=O)OC)C1c1c(-c2ccccc2OC)nc2sccn12 — EC50 (decrease in atrial rate; guinea pig right atrium): 4890 nM
CNC(C)C1CCC(N)C(OC2C(N)CC(N)C(OC3OCC(C)(O)C(NC)C3O)C2O)O1 (stereo not drawn) — MIC (Klebsiella pneumoniae; clinical isolate RKI-No_393/16): ≤ 0.5 µg/mL
COC(=O)C1=C(C)NC(C)=C(C(=O)OC)C1c1c(Cl)nc2sc(Cl)cn12 — decrease in developed tension (guinea pig left atrium; 50 µM, paced at 1 Hz; reference: control): 77 ± 2.9%
CN[C@@H](C)C(=O)N[C@H]1CN(S(=O)(=O)c2cccc(S(=O)(=O)N3CC[C@H]4CC[C@@H](C(=O)NC(c5ccccc5)c5ccccc5)N4C(=O)[C@@H](NC(=O)[C@H](C)NC)C3)c2)CC[C@H]2CC[C@@H](C(=O)NC(c3ccccc3)c3ccccc3)N2C1=O — stable disease after cycle (advanced solid tumour patients; first cycle): 21.7%
COC(=O)C1=C(C)NC(C)=C(C(=O)OC)C1c1c(-c2c(OC)ccc(OC)c2[N+](=O)[O-])nc2sccn12 — EC50 (negative inotropic effect; guinea pig, isolated left atrium): 360 nM
Nc1cc(C(F)(F)F)c(-c2nc(N3CCOCC3)nc(N3CCOCC3)n2)cn1 — remaining activity (Serine/threonine-protein kinase PAK 6 (PAK6, Homo sapiens, UniProt Q9NQU5); enzyme activity; 10 µM; reference: untreated): 83%
COC(=O)C1=C(C)NC(C)=C(C(=O)OC)C1c1c(-c2cc(OC)ccc2OC)nc2sc(C)cn12 — EC50 (decrease in atrial rate; guinea pig right atrium): 6610 nM
Nc1ccn([C@@H]2O[C@H](CO)[C@@H](O)C2(F)F)c(=O)n1 — overall tumour response rate (metastatic pancreatic cancer patients; dose not given): 5.4%
COC(=O)C1=C(C)NC(C)=C(C(=O)OC)C1c1c(-c2cc(OC)ccc2OC)nc2sc(Cl)cn12 — EC50 (negative inotropic effect; guinea pig, isolated left atrium): 900 nM
Cc1cc(C)c(CNC(=O)c2cc(Cl)c3c(c2C)O[C@@](C)([C@H]2CC[C@H](N(C)C)CC2)O3)c(=O)[nH]1 — overall response rate (relapsed/refractory PTCL patients; dose not given): 55.6%
CCc1cn2c(C3C(C(=O)OC)=C(C)NC(C)=C3C(=O)OC)c(-c3cc(OC)ccc3OC)nc2s1 — EC50 (negative inotropic effect; guinea pig, isolated left atrium): 2240 nM
Fc1ncccc1-c1ccc2c(n1)[nH]c1ccncc12 — IC50 (binding, refers to: tau aggregates; progressive supranuclear palsy brain tissue): < 2 nM

For quick reference, copied from above:
Nc1cccc2c1CN(C1CCC(=O)NC1=O)C2=O (stereo not drawn) — IC50 (TNF release; human whole blood; with: LPS): 100 nM
O=C(O)CN(CC(=O)O)[C@H]1CCCC[C@@H]1N(CC(=O)O)Cc1ccccn1 — transmetallation rate constant (37 °C, with: 25 equiv Zn2+): 0.000676 s⁻¹
O=C(O)c1ccc(O)c(O)c1 — effective dose (anti-inflammatory effect; lung injury, acute, LPS-induced mouse; intraperitoneal): 5 mg/kg
COc1cccc2c1C(=O)c1c(O)c3c(c(O)c1C2=O)C[C@@](O)(C(=O)CO)C[C@@H]3O[C@H]1C[C@H](N)[C@H](O)[C@H](C)O1 — overall response rate (soft tissue sarcoma incl. epithelioid; dose not given): ~24%
COc1ccc(-n2nc(C(N)=O)c3c2C(=O)N(c2ccc(N4CCCCC4=O)cc2)CC3)cc1 — aPTT (dog; oral, 0.2 mg/kg): no effect
O=C(c1ccc(Cl)cc1)N(Cc1ccccc1)C1CCCCC1 — cytokine release (refers to: IL-1β, IL-6, TNF-α; mouse, LPS-induced ALI; dose not given): decreased
C=CC(=O)Nc1cc(Nc2ncc(C(=O)OC(C)C)c(-c3cn(C)c4ccccc34)n2)c(OC)cc1N(C)CCN(C)C — objective response rate (phase 1/2 trial; human, NSCLC patients; dose not given): 28%
